Experimental data from different studies.
Each numbered part is a random draw from the data of one study; scales do not carry over between parts.

Study 1
Target: TAR DNA-binding protein 43, full length, His tag (TARDBP, Homo sapiens, UniProt Q13148, residues 1-414)
Technique: RNA Bind-n-Seq
Molecule type: RNA
Matrix: in vitro
Concentration: 20 nM
Notes: 6-mer, flanks averaged, single round
Together with: 150 mM KCl
Relative to: input library
Reading: higher = stronger binding
Oligonucleotide	6-mer enrichment (R)
AGAACU	0.732
CUCAUG	0.646
AGCCAU	0.646
AUUUAC	0.595
CGCUCA	0.609
CGCCGU	0.766
ACUUCG	0.583
GUAGGC	1.38
UUCCCA	0.594
CUCGGA	0.806
CGUGAA	0.831
CAGUUC	0.581
UUGUCU	0.606
CCGGUA	0.769
UGUGGA	1.49
CACCAA	0.718
UGGCCC	0.799
CCGAUA	0.613
CGAUGC	0.764
GCUAGA	0.895
ACUACU	0.58
AGAUUG	0.761
UCACGC	0.654
UGAUGG	1.43
ACGCAC	0.691

Study 2
Target: RNA binding protein fox-1 homolog 2, RRM domain, GST-SBP tag (RBFOX2, Homo sapiens, UniProt O43251-10, residues 100-194)
Technique: RNA Bind-n-Seq
Molecule type: RNA
Matrix: in vitro
Concentration: 365 nM
Notes: natural RNA segment, single round, ends assumed
Relative to: no-protein control
Reading: higher = stronger binding
Residues (chain): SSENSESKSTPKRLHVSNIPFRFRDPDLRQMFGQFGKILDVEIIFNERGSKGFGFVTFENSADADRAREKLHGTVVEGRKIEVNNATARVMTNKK
Oligonucleotide	RBNS enrichment (R)
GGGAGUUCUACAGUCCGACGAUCGAGGGGGAAAGAUUCUACUUCAAAUCUUUAACAACAAGAGUGAUUCUGUUCAGCUGGGGUAGAGUGAGGAUGAAAAGUCAGCCACCACUCUGUGGCAGGGUUGCUGGGUGUGGAAUUCUCGGGUGCCAA	0.487
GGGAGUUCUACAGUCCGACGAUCUGCCCCGAGCCCUAGGUGGGGCCAGGAGGUGCCUUGGAGAAGCCAGCCAGAGCAGAGAGGGCUGCUGACUUCCGUGUGGAGCAGAGAGGCCUGAGGGCCUCCUAAAAGGUUGGAAUUCUCGGGUGCCAA	1.08
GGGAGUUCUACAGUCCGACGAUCGGUGACUCUGUCCAGCUCCCGCUGUGGCCGCACGCCUCUCCCUGCACUCCCUCCUGGAGCUCUGUGGGUCUCUGGAAGAGGAACCAGGAGAAGGGCUGGGGCCGGGGCUGUGGAAUUCUCGGGUGCCAA	0.282
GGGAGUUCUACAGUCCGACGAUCCCUAAAAAUGUGGAAAAGCACGCCAAAGCCUUAUUUAAAUAAUAACUAUUAAACUAUUCAAAAAGAAGACUGUUAUUUUAUUUAACACCUUUGUUUUUUAAGAAUGAACAUGGAAUUCUCGGGUGCCAA	2.29
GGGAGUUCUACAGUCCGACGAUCAAGUAUUUGAUAUCAUUGUACAUAAGAGUUUUCAGAGAUUUCAUAUAUAUCUUUUACAGAGGCUAUUUUAAUCUUUAGUGCAUGGUUAACAGAAAAAAAUUAUACAAUUUUGGAAUUCUCGGGUGCCAA	5.01
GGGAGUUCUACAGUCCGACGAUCACUUCAUUAGAUUUAAUUUCUAGGCCAAGAUGUUACUUUUUAAAGUGCAGUUUAAGGUUCAGGCAUGCAUUCUGGCUCAUAGUGGUUGAAAGUAAUUUAAAUUAGUGGGAUGGAAUUCUCGGGUGCCAA	3.75
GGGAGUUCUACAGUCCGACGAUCCCUGGAACCAAACAUCAGAAUGCACACUAUUCUCCUAACAGUGAGCAUGGGGGGCAGGAGCCAGGGAGUCUAUUAGGUUCUAACCAACCUAGUUUUCAUUGUUGACAAGUUGGAAUUCUCGGGUGCCAA	0.292
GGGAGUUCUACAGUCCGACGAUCUUUGGACACUGGAGUUGAAAGUUACAGGCAAUCUGUUACACUUGGCUCUGAAUCCUAUGAAUCAAGGAAAUAACCCGUUCUCUGGAAGACACUGAAACAGGAGAGAGGGAUGGAAUUCUCGGGUGCCAA	0.207

Study 3
Target: Histone acetyltransferase KAT6A, both winged helices, GST fusion (KAT6A, Homo sapiens, UniProt Q92794, residues 1-181)
Technique: protein binding microarray
Molecule type: double-stranded DNA, one strand shown
Matrix: in vitro
Concentration: not given
Notes: 8-mer, flanks averaged, mean of 2 arrays, mostly near background
Relative to: not given
Reading: higher = stronger binding
Residues (chain): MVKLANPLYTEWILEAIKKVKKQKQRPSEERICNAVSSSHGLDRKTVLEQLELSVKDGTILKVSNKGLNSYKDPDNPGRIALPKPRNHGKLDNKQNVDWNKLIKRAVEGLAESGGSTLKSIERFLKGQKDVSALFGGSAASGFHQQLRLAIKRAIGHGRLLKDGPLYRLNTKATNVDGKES
Oligonucleotide	E-score
CGTTAACG	0.133
CAAGCAAC	0.0254
CCTACCTC	-0.211
CGAGGAGC	0.00487
GACGGATC	0.171
GACGGGTA	0.195
CTACATAA	-0.185
TAGGCTCA	-0.18
AAGGGTCG	0.124
ACACTGGG	-0.0823
ACGTCCAC	-0.0699
ACCCAGTG	-0.185
CGCGCTTA	0.301
ACGTTGCA	-0.232
CCTTAAGG	-0.218
AGTTCGCC	0.00424
GAGTCTCC	3e-05
ACAAAACC	-0.0541
ATCGGTTC	0.105
AATATTCC	0.0436

Study 4
Target: Prothrombin, mature alpha-thrombin (F2, Homo sapiens, UniProt P00734)
Technique: aptamer microarray, sandwich
Molecule type: DNA with 2'F-ANA
Matrix: in vitro
Concentration: 200 nM
Notes: whole 15-mer aptamer, many near background
Together with: Cy3 exosite-II aptamer, 400 nM
Reading: higher = stronger binding
Oligonucleotide: GGTTGGTGTGGTTGG
Modification	mean fluorescence intensity [a.u.]
2'F-ANA at 1 2 3 4 5 7 8 9 11 13 14	44.4
2'F-ANA at 2 4 6 11 12	368
2'F-ANA at 5 10 11 14	47
2'F-ANA at 5 8 12 14 15	50.3
2'F-ANA at 1 6 7 12	382
2'F-ANA at 1 3 6 13 15	208
2'F-ANA at 1 3 4 5 8 9 10 11 12 13 15	50
2'F-ANA at 2 3 5 6 7 8 9 10 11 12 13 14	52.6
2'F-ANA at 1 3 4 5 11 14	44.1
2'F-ANA at 2 3 4 6 9 10 11 12 14	142
2'F-ANA at 2 4 5 6 7 10 11	49.6
2'F-ANA at 7 8 9 11 13 15	418
2'F-ANA at 1 2 11 14	56.6
2'F-ANA at 2 4 6 8 9 10 12 14	113
2'F-ANA at 1 2 4 5 7 8 10 11 12 15	52
2'F-ANA at 1 2 5 6 7 9 11 15	56.5
2'F-ANA at 1 6 12 15	380
2'F-ANA at 1 5 7 8 9 10 11 15	52.1
2'F-ANA at 1 4 5 6 7 14	50.6
2'F-ANA at 8 10 13 15	143
2'F-ANA at 3 4 8 11 14 15	325
2'F-ANA at 1 2 10	52.1
2'F-ANA at 5 6 7 8 9 14	47.6
2'F-ANA at 2 9 11 12 15	545
2'F-ANA at 2 3 6 7 8 10 13 15	299

Study 5
Target: Sal-like protein 4, full length isoform A (SALL4, Homo sapiens, UniProt Q9UJQ4, residues 1-1053)
Chain of UniProt Q9UJQ4 (whole entry, looked up): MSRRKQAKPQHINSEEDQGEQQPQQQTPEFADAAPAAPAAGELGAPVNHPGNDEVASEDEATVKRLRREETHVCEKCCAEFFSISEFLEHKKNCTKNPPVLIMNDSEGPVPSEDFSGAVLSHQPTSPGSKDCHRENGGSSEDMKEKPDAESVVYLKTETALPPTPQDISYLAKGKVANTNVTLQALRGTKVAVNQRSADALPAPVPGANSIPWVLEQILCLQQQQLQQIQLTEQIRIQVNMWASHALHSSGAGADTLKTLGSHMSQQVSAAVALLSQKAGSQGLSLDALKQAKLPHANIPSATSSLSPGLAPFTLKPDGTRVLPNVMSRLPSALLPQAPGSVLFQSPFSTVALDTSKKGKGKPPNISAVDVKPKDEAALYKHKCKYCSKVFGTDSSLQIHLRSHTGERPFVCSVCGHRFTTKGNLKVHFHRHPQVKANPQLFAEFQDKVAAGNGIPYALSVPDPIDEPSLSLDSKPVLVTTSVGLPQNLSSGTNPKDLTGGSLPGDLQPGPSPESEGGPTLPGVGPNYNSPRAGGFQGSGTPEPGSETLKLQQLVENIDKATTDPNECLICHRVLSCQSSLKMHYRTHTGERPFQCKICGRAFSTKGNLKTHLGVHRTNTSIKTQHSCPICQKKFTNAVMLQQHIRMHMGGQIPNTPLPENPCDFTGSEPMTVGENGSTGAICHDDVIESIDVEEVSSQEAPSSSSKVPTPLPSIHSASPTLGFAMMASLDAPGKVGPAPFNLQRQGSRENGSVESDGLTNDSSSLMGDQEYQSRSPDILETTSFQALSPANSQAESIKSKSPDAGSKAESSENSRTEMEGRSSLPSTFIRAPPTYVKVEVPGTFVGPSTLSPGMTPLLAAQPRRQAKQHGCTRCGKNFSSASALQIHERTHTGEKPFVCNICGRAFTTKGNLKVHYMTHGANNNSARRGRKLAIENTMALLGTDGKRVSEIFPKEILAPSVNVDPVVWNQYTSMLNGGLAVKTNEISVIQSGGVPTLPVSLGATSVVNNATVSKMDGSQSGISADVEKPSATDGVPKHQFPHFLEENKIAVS
Technique: universal PBM
Molecule type: double-stranded DNA, one strand shown
Matrix: in vitro
Concentration: 600 nM
Notes: 8-mer, flanks averaged, mean of replicates
Reading: higher = stronger binding
Oligonucleotide	E-score
CAACACTG	0.0926
CAGGTAGG	-0.0666
TAGGTTAA	0.214
GCCCCGCA	-0.358
ATGGTTAC	0.205
AGTGGTCA	-0.161
CGTCAAAA	0.187
AAGATGAA	0.152
GTCAACGA	0.00793
CTAGGCAA	-0.0276
ACTCTATC	0.119
GCAAAGGC	-0.111
ATCTGGCA	0.0111
GACAAATC	0.135
CGTCCAGC	-0.218
AATGCGCT	-0.0869
TACCGGGA	-0.161
ACAGCCCA	-0.17
GACCCACA	0.00554

For quick reference, copied from above (study 1):
Oligonucleotide	6-mer enrichment (R)
ACUACU	0.58
GCUAGA	0.895
AGAUUG	0.761
UGUGGA	1.49
AUUUAC	0.595
CAGUUC	0.581
AGCCAU	0.646
CCGGUA	0.769
CGCUCA	0.609
ACUUCG	0.583
UUCCCA	0.594
CCGAUA	0.613
CUCGGA	0.806
CGUGAA	0.831
CGAUGC	0.764
